Measurements pooled from the literature.
A part holds a random share of what one study measured. Positions count from the first letter of the parent shown.

Block 1
Target: CCNF, cyclin fold, Cln2 fusion (human)
Technique: yeast growth competition, sequencing
Medium: yeast
Setting: strong parent motif
Relative to: not given
Direction: higher = stronger binding
Starting sequence: RBL1 docking peptide (human); GSAKRRLFGEDPP
Change | normalised enrichment score
GSAKRRLFGEDDP [P12D] | 7.02
GDAKRRLFGEDPP [S2D] | 5.07
GSAFRRLFGEDPP [K4F] | 4.16
GSAKWRLFGEDPP [R5W] | 0.486
GSAKRRLFGQDPP [E10Q] | 6.31
GSAKERLFGEDPP [R5E] | -0.152
GSAKRRLFGEDKP [P12K] | 6.2
GSAKMRLFGEDPP [R5M] | 0.488
GSAKRRLMGEDPP [F8M] | 0.988
GSAKRRLFGGDPP [E10G] | 5.96
GSAMRRLFGEDPP [K4M] | 3.97
GSAKPRLFGEDPP [R5P] | -0.317
GSAKRRLFGYDPP [E10Y] | 6.92
GSAKRRLNGEDPP [F8N] | 0.938
GSAKRRLFGEDWP [P12W] | 7.42
GSAGRRLFGEDPP [K4G] | 2.98
GCAKRRLFGEDPP [S2C] | 7.93
GSAKRRLFGEAPP [D11A] | 7.1
GSAKRRLIGEDPP [F8I] | 0.74
GSAKHRLFGEDPP [R5H] | 0.492
GSAARRLFGEDPP [K4A] | 6.46
GSAKRRQFGEDPP [L7Q] | 0.739
GSAKRRLFFEDPP [G9F] | 9.12
GSAERRLFGEDPP [K4E] | 0.446

Block 2
Target: ABI1, truncated, D143A, DHFR fusion (Arabidopsis thaliana)
Technique: DHFR PCA, deep sequencing
Medium: yeast
Setting: methotrexate growth selection, single substitutions
With: (+)-ABA 200 µM
Relative to: wild-type fitted maximum
Direction: higher = stronger binding
Starting sequence: PYL1, truncated, DHFR fusion (Arabidopsis thaliana); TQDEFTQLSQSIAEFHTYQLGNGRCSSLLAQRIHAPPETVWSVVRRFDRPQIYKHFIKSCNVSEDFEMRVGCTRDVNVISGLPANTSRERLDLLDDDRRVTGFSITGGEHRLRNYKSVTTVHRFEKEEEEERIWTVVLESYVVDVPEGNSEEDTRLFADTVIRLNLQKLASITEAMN
Change | relative binding score [%]
T86R | 95.6
A170E | 70.6
Y53R | 66.6
I33P | 0.29
C60A | 85.3
R123S | 106
S171M | 95.5
G107C | 62.8
M68V | 98.9
R90C | 81.7
F124D | 107
N61P | 58.4
G71M | 53.3
L91N | -8.81
R155V | 90.8
R98E | 93.5
N149F | 18.6
Q19N | 101
T39D | 94.1
R98H | 93.4

Block 3
Target: Ras GTPase-activating protein-binding protein 1, full length (G3BP1, Homo sapiens, UniProt Q13283)
Chain of UniProt Q13283 (whole entry, looked up): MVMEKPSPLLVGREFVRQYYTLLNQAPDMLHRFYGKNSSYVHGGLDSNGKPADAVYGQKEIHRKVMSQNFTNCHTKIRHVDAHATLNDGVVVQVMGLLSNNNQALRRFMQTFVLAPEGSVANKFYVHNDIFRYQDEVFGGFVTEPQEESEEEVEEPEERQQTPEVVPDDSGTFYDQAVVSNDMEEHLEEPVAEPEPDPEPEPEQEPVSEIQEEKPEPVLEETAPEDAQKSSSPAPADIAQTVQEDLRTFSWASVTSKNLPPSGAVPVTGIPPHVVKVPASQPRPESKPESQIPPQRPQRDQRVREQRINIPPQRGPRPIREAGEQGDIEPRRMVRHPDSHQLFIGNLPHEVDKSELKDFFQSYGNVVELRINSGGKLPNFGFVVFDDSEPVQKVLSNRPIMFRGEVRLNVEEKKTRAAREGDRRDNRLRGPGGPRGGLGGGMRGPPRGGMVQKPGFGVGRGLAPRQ
Technique: RNA Bind-n-Seq
Form: RNA
Medium: in vitro
Concentration: 200 nM
Setting: whole 134-nt RNA, ends assumed
With: 150 mM LiCl
Relative to: input library
Direction: higher = stronger binding
Library: 7-deaza-guanosine replaces G
Oligonucleotide | log2 enrichment
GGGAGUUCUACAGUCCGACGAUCUCCUCAAGUCCUGUGCUACACAUCGUAUGUACCGAAUCGGUGGUGGGUGGGAAAGUAUUAUGUUACGCCGUUCGGAUCUGCACUUCCAGCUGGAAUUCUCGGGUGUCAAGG | 0.943
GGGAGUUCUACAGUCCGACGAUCUAACUUUAGAGGAGGAUCUGAUGGAUAUGGCAGUGGACGUGGAUUUCGGGAUGGCUAUAAUGGGUAUGGAGGAGGACCUGGAGGUGGCAAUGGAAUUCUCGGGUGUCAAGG | -0.707
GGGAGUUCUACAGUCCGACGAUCGUCCUGUGCUACACAUCGUAUGUACCGAAUCGGGUUUUUGGUUUUUGGGGUUUUUGGGAAAGUAUUAUGUUACGCCGUUCGGAUCUGCACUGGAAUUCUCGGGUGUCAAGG | -0.26
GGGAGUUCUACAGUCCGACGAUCUCCUUUCUGUCAUUUUACACCCACAGUUGAAGAUUCCUGUCUCUGGAUCCAAAUCAGAGGGCCUUCUCUACGUCCACUCAUCCAGAGGUGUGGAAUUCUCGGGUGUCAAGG | 1.48
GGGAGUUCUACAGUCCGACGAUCUGGCCCUGGUGGCAUGCGGGGAGGAAGAGGUGGCCUCAUGGAUCGUGGUGGUCCCGGUGGAAUGUUCAGAGGUGGCCGUGGUGGAGACUGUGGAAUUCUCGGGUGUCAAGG | 0.163
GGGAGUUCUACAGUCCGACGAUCAAGUCCUGUGCUACACAUCGUAUGUACCGAAUCGGGCCCCGGGGCCCCGGCCCCGGGAAAGUAUUAUGUUACGCCGUUCGGAUCUGCACUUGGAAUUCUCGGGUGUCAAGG | -1.49
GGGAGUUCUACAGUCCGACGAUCUCAAGUCCUGUGCUACACAUCGUAUGUACCGAAUCGGAGGUUUUUGGAAAAAGGAAAGUAUUAUGUUACGCCGUUCGGAUCUGCACUUCCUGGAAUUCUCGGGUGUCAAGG | -1.28
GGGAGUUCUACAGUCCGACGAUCCACAGACAACACGCACCCACACAGACACAGAGGGAAGAAAUUGGGAUGGGGACAGGGUGCACAGCAGGGCGGGGUAGGACCCCAGCCCCUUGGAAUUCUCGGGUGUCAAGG | -1.2

Block 4
Target: Histone acetyltransferase KAT6A, winged helix 1, GST fusion (KAT6A, Homo sapiens, UniProt Q92794, residues 1-85)
Technique: protein binding microarray
Form: double-stranded DNA, one strand shown
Medium: in vitro
Concentration: not given
Setting: 8-mer, flanks averaged, mean of 2 arrays, mostly near background
Relative to: not given
Direction: higher = stronger binding
Residues (chain): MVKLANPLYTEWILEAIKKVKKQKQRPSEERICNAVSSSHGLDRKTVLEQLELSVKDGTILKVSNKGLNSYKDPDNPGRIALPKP
Oligonucleotide | E-score
AGCAGCGA | -0.048
TGAATCAA | -0.0503
GGGCAAAA | 0.0401
ATAACTCC | -0.0931
GCGACGAA | -0.106
CATTCTAC | -0.147
ACTGAACG | 0.0316
ACCACCCA | -0.159
AGGATAAC | -0.213
TACCTGGA | -0.0621
AAAATCCC | 0.00742
ATAAGTCA | -0.218
CGTGAATA | -0.0121
AAAGAGGG | -0.0603
ACGTGTCT | -0.0922
CAGCTCAG | -0.117
CTGGAGAA | -0.187
CACTACAA | -0.164
CTCCTATC | -0.0926
GCAGCAGA | -0.101
CTTACACC | -0.147
GATACTCC | -0.08
TAATTAAA | -0.135
ATTGGATA | -0.129
ATCAGAAA | -0.174
